Published values pooled from the literature.
Every numbered part comes from another study and shows a few of its results, in no order. Substitutions count along the parent as printed.

Sample 1
Target: CREB3L4, bZIP domain (human)
Method: DHFR protein complementation
Medium: yeast
Notes: single substitutions, most at no-binding floor
Baseline: wild-type JUN-FOS pair
Reading: higher = stronger binding
Endpoint: binding fitness
Starting sequence: JUN, bZIP domain (human); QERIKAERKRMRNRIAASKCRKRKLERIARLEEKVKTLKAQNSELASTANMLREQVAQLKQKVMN; partner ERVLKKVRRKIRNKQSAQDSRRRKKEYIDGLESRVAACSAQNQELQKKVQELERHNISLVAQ
L31P: -1.52 natural log
M51E: -1.22 natural log
E54T: -1.26 natural log
E54V: -1.51 natural log

Sample 2
Target: RNA binding protein fox-1 homolog 2, RRM domain, GST-SBP tag (RBFOX2, Homo sapiens, UniProt O43251-10, residues 100-194)
Method: RNA Bind-n-Seq
Form: RNA
Medium: in vitro
Tested at: 365 nM
Notes: natural RNA segment, single round, ends assumed
Baseline: no-protein control
Reading: higher = stronger binding
Endpoint: RBNS enrichment (R)
All sequences stand within: GGGAGUUCUACAGUCCGACGAUC … UGGAAUUCUCGGGUGCCAA
Residues (chain): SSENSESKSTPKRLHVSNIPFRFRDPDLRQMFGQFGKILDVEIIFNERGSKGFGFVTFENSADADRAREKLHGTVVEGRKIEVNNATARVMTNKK
UGCUCCAUCAUGAAGACUUGCUUCCCCACCAAAGAUGUCCUGGGAUUCUGCUGGAUCUCAAAGAUGUGCCAAGCCAAGGAAAAAGAUACAAGAGCAGAAUAGUACUUAAA: 0.259
AUUAAUUAAGAGGUUGAAAAGAAGUGCAGUGUAAGAAAACCCAGCAUUUUAAUUACUUGCAAAUUAAGUUACCACAGACUCUGUAGUGUGUAAAUGUUGACAAGGAAUUG: 0.514
CGGCAGCCCUGGCGGAGGGAUGCAGGUGGGCCGGAAGAUCCCACGAUUCCGAUCGACUGCCAAGCAGCAGCCGCUGCCAGGGGCUGCGUCUGACAUCCUGACCUCCUGGA: 0.255
AGAAUGUCAGUCAGCUGACUUAAAAAACAUUGGUUUUACUAAGUCUGCCUUCCCCUUCUAAGGAAGAACUGAGUGGGUAAGGGACAGGUGUGUAAAAUCUCCAAAUGGAU: 0.434
CAUGGGCAUACCAAGCCAGAGCCCCAGGGAUAAGCUGGGGGGUCUUGUGGCCUUUAGGACAGUGCUUAGCACUGUGCAGCUGGGACUGUCCCUGGCAAGUGCCUGGUAAA: 0.317
ACUAUAAUAAUCGGUUACUGUUAUAAAGUUUAAAAGGUGGUUUUAAUGUGAAUAGCAAAUUCUGGUAUAUCGUGACUAACGCUUAAGAAUGCCUGUCUUUGAGAGGAAGG: 1

Sample 3
Target: Prothrombin, mature alpha-thrombin (F2, Homo sapiens, UniProt P00734)
Method: aptamer microarray, sandwich
Form: DNA with 2'F-ANA
Medium: in vitro
Tested at: 200 nM
Notes: whole 15-mer aptamer, many near background
Together with: Cy3 exosite-II aptamer, 400 nM
Reading: higher = stronger binding
Endpoint: mean fluorescence intensity
Sequence: GGTTGGTGTGGTTGG
2'F-ANA at 1 2 3 4 5 6 7 9 10 12 13 14 15: 53.2 a.u.
2'F-ANA at 1 4 7 12 13 14 15: 55.7 a.u.
2'F-ANA at 1 2 3 8 14: 84.6 a.u.
2'F-ANA at 1 2 3 4 6 9 13 15: 112 a.u.
2'F-ANA at 4 7 9 12 14 15: 121 a.u.

Further values, each from its own experiment
PhoQ, residues 284 288 289 292 302 303 NSMLDC  fold induction (PhoP, residues 12 14 15 18 19 LWHCS (Escherichia coli, UniProt P23836); Sort-seq, measured: YFP reporter; E. coli; PhoQ-PhoP variant library, together with: 10 µM Mg2+; baseline: high Mg2+ state, higher = stronger signaling): 9.06
